Measurements pooled from the literature.
Each numbered part is a random draw from the data of one study; scales do not carry over between parts. Positions count from the first letter of the parent shown.
UniProt O75716, sequence (whole entry, looked up): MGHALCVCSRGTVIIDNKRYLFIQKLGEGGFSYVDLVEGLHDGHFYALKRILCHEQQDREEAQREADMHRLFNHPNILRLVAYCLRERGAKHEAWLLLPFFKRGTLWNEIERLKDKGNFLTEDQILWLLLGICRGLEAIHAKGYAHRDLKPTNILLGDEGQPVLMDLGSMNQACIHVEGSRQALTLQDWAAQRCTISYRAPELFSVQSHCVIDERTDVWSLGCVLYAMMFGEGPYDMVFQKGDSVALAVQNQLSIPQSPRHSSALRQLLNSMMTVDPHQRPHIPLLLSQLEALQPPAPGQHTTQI
UniProt O94806, sequence (whole entry, looked up): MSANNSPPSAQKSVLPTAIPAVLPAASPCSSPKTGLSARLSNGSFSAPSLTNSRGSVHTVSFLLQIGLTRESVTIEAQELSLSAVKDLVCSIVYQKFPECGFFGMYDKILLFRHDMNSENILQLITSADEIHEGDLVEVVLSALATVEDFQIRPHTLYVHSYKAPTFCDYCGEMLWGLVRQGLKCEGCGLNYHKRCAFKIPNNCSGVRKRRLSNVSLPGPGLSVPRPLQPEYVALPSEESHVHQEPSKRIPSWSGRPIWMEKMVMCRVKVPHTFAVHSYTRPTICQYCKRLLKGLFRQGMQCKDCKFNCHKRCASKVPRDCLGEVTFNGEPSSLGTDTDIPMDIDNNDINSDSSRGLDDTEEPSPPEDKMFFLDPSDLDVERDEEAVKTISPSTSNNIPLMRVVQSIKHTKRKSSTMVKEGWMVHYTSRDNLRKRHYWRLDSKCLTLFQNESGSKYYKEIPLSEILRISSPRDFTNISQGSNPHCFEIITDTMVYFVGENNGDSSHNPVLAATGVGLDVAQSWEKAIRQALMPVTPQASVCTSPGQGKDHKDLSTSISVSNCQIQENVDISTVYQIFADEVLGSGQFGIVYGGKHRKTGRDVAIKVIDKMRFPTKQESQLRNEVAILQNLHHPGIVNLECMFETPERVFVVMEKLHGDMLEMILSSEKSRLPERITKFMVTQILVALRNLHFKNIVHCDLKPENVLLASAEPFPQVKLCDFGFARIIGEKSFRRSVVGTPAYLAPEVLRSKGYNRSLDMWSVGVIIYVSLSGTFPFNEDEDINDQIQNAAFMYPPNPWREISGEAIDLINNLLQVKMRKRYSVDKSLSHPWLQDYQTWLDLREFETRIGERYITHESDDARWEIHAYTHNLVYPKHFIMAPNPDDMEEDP
UniProt Q15831, sequence (whole entry, looked up): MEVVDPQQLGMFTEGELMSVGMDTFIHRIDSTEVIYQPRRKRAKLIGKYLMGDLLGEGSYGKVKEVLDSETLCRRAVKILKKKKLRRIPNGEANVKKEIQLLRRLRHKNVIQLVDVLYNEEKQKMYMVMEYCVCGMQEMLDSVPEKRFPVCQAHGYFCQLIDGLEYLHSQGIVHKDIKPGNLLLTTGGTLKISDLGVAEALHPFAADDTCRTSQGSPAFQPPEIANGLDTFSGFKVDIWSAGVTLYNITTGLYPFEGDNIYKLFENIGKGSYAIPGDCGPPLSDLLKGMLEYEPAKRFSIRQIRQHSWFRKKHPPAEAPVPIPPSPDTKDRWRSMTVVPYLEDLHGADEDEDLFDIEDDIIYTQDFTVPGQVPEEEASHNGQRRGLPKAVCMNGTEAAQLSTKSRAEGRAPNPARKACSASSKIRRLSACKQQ
UniProt O75460, sequence (whole entry, looked up): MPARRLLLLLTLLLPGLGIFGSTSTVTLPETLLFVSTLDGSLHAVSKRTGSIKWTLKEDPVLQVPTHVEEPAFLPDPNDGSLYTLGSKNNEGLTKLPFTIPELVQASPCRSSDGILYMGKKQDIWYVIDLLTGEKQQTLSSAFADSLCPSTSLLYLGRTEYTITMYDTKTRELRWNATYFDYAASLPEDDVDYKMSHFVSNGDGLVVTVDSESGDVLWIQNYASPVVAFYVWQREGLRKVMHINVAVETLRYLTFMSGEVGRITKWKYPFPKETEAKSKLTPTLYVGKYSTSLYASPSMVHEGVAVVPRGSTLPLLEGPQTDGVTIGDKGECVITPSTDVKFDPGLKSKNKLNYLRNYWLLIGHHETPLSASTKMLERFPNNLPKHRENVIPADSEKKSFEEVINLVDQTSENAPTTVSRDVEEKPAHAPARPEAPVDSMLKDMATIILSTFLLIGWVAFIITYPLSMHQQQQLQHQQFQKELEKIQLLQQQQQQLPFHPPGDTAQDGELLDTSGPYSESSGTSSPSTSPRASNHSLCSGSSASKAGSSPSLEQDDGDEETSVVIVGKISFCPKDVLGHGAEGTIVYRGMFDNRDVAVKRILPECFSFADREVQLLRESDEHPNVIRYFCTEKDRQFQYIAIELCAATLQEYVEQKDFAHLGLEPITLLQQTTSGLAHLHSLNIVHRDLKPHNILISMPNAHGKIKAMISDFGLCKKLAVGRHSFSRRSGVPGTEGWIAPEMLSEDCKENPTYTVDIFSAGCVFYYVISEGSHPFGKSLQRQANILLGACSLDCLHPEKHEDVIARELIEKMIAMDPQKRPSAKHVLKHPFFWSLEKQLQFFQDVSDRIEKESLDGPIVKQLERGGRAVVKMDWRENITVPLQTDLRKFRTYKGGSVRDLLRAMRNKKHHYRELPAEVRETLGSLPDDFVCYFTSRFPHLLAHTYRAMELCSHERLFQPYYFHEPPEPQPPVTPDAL
UniProt Q52WX2, sequence (whole entry, looked up): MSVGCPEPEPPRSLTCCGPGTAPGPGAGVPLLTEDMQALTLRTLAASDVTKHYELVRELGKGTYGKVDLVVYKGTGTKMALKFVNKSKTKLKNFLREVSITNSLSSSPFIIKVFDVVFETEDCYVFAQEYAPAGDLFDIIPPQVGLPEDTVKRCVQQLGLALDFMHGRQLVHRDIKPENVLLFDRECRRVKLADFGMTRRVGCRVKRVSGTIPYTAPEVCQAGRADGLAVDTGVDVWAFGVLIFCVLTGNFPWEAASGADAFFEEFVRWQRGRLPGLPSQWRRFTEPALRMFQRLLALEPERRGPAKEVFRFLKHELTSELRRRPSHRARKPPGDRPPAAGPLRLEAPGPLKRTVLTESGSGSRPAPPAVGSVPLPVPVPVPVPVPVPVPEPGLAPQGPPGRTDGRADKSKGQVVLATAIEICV

Study 1
Target: CCNE1, cyclin fold, Cln2 fusion (human)
Method: yeast growth competition, sequencing
Medium: yeast
Notes: weak parent motif
Relative to: not given
Reading: higher = stronger binding
Starting sequence: CDC6 docking peptide (human); TLKGRRLVFDNQL
`Q12T` — result for “normalised enrichment score”: 0.763.
`V8P`: “normalised enrichment score” 0.0235.
For `D10L`, “normalised enrichment score” read 0.103.
`L2S`: “normalised enrichment score” -0.282.
`R5F` — result for “normalised enrichment score”: 0.726.
For `V8Q`, “normalised enrichment score” read -0.286.
Under “normalised enrichment score”, `R5E` is recorded as 0.171.
Under “normalised enrichment score”, `V8T` is recorded as 0.345.

Study 2
Target: ATF5, bZIP domain (human)
Method: DHFR protein complementation
Medium: yeast
Notes: single substitutions, most at no-binding floor
Relative to: wild-type JUN-FOS pair
Reading: higher = stronger binding
Starting sequence: JUN, bZIP domain (human); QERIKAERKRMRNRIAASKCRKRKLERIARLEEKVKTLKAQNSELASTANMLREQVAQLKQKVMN; partner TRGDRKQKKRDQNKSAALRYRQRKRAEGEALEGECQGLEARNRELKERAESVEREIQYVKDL
The binding fitness of `K34V` is reported as -1.47 natural log.
The binding fitness of `R53G` is reported as -1.54 natural log.
`S43N` has a binding fitness of -1.24 natural log.
The binding fitness of `M51K` is reported as -1.37 natural log.
`L52Q` gave a binding fitness of -1.56 natural log.
For `Q41D`, the binding fitness was -1.56 natural log.
With `E33S` the binding fitness was -1.31 natural log.
The binding fitness of `A29Q` is reported as -1.41 natural log.

Study 3
Target: MAP/microtubule affinity-regulating kinase 4 (MARK4, Homo sapiens, UniProt Q96L34)
UniProt Q96L34, sequence (whole entry, looked up): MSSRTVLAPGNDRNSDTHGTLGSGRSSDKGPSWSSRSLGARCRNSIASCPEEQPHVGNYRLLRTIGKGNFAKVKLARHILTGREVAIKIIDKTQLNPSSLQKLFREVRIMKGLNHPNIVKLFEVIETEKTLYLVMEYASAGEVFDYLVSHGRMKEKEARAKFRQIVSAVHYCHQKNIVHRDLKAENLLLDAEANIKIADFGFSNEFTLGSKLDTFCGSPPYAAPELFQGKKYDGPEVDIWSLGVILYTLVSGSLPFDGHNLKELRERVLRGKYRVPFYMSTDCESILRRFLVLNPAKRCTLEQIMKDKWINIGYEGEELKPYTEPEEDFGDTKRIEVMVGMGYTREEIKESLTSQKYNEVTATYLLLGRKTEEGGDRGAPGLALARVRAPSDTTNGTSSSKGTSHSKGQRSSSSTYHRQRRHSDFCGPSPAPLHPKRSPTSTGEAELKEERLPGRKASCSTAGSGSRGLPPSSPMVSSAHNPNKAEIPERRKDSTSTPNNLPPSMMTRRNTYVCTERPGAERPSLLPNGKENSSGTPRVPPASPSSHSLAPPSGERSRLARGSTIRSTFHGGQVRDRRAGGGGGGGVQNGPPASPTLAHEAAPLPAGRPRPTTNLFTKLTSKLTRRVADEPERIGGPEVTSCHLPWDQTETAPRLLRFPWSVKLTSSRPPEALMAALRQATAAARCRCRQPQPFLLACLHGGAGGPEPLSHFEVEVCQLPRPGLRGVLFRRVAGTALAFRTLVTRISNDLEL
Observed: enzyme activity
Mode: inhibitor
Concentration: 0.5 µM
Relative to: control
With `O=S(=O)(c1cccc2cnccc12)N1CCCNCC1` the remaining activity was 103%.
With `C#Cc1cccc(Nc2ncnc3cc(OCCOC)c(OCCOC)cc23)c1` the remaining activity was 102%.
With `COc1ccc(C(=O)Nc2sc3c(c2C(N)=O)CCCC3)cc1OC` the remaining activity was 86.5%.
The remaining activity of `Cn1sc(=O)n(Cc2ccccc2)c1=O` is reported as 85.1%.
`CN(C)c1ccc(C=C2C(=O)Nc3ccccc32)cc1` has a remaining activity of 97%.
The remaining activity of `Nc1ccc2ncnc(NCCc3ccc(Oc4ccccc4)cc3)c2c1` is reported as 105%.
For `COc1cc2ncnc(Nc3ccc(Oc4ccccc4)cc3)c2cc1OC`, the remaining activity was 105%.
For `Cc1nc(-c2ccccc2)c(-c2ccncc2)o1`, the remaining activity was 103%.
The remaining activity of `N#CC(C#N)=C(N)/C(C#N)=C/c1ccc(O)cc1` is reported as 94.3%.
With `CC(C)[C@H](CO)Nc1nc(Nc2cc(N)cc(Cl)c2)c2ncn(C(C)C)c2n1` the remaining activity was 71.2%.
With `Oc1ccc(-c2nc(-c3ccncc3)c(-c3ccc(F)cc3)[nH]2)cc1` the remaining activity was 100%.
`Cc1cccc(-c2[nH]c(C(C)(C)C)nc2-c2ccc3c(c2)OCO3)n1` gave a remaining activity of 99.7%.
For `Cc1ccc(NC(=O)c2ccc(CN3CCN(C)CC3)cc2)cc1Nc1nc(-c2cccnc2)cs1`, the remaining activity was 101%.
`OCC(O)CCON=C1C(c2c(O)[nH]c3ccccc23)=Nc2ccccc21` (stereo not drawn) gave a remaining activity of 43.5%.
`Cn1c2ccccc2c2c3c(c4c5ccccc5n(CCC#N)c4c21)CNC3=O` has a remaining activity of 10.8%.

Study 4
Structure (SMILES): CN(C)c1ncnc(-c2ccc3nc(Nc4cc(CN5CCN(C(=O)CC(F)(F)F)CC5)ccn4)[nH]c3c2)c1Cl
Concentration: 1 µM
Receptor-type tyrosine-protein kinase FLT3, autoinhibited (FLT3, Homo sapiens, UniProt P36888); cell-free assay, competition with immobilised ligand — remaining binding: 71%.
It gave 85% for remaining binding (AP2-associated protein kinase 1 (AAK1, Homo sapiens, UniProt Q2M2I8); binding).
For Serine/threonine-protein kinase TAO3 (TAOK3, Homo sapiens, UniProt Q9H2K8); cell-free assay, competition with immobilised ligand: remaining binding read 33%.
Cyclin-dependent kinase 13 (CDK13, Homo sapiens, UniProt Q14004); cell-free assay, competition with immobilised ligand — remaining binding: 84%.
It gave 88% for remaining binding (Serine/threonine-protein kinase D3 (PRKD3, Homo sapiens, UniProt O94806); cell-free assay, competition with immobilised ligand).
It gave 100% for remaining binding (Wee1-like protein kinase (WEE1, Homo sapiens, UniProt P30291); cell-free assay, competition with immobilised ligand).
For Serine/threonine-protein kinase/endoribonuclease IRE1 (ERN1, Homo sapiens, UniProt O75460); cell-free assay, competition with immobilised ligand: remaining binding read 62%.
It gave 100% for remaining binding (Ribosomal protein S6 kinase alpha-2, N-terminal kinase domain (RPS6KA2, Homo sapiens, UniProt Q15349); cell-free assay, competition with immobilised ligand).
For Serine/threonine-protein kinase SBK1 (SBK1, Homo sapiens, UniProt Q52WX2); cell-free assay, competition with immobilised ligand: remaining binding read 71%.
The remaining binding was 100% (Serine/threonine-protein kinase 16 (STK16, Homo sapiens, UniProt O75716); cell-free assay, competition with immobilised ligand).
Dual specificity mitogen-activated protein kinase kinase 4 (MAP2K4, Homo sapiens, UniProt P45985); cell-free assay, competition with immobilised ligand — remaining binding: 92%.
The remaining binding was 100% (Serine/threonine-protein kinase Nek5 (NEK5, Homo sapiens, UniProt Q6P3R8); cell-free assay, competition with immobilised ligand).
The remaining binding was 99% (Serine/threonine-protein kinase STK11 (STK11, Homo sapiens, UniProt Q15831); cell-free assay, competition with immobilised ligand).
The remaining binding was 78% (Casein kinase II subunit alpha' (CSNK2A2, Homo sapiens, UniProt P19784); cell-free assay, competition with immobilised ligand).

Repeated from above (study 3):
With `CC(C)[C@H](CO)Nc1nc(Nc2cc(N)cc(Cl)c2)c2ncn(C(C)C)c2n1` the remaining activity was 71.2%.
With `Oc1ccc(-c2nc(-c3ccncc3)c(-c3ccc(F)cc3)[nH]2)cc1` the remaining activity was 100%.
`Cc1cccc(-c2[nH]c(C(C)(C)C)nc2-c2ccc3c(c2)OCO3)n1` gave a remaining activity of 99.7%.
For `Cc1ccc(NC(=O)c2ccc(CN3CCN(C)CC3)cc2)cc1Nc1nc(-c2cccnc2)cs1`, the remaining activity was 101%.
`OCC(O)CCON=C1C(c2c(O)[nH]c3ccccc23)=Nc2ccccc21` (stereo not drawn) gave a remaining activity of 43.5%.
